Measured values gathered from unrelated publications.
Lines come from different studies, so protocols differ. ± gives the spread as reported.
Organism: Escherichia coli

NC(=O)N1CCc2cc(S(=O)(=O)N3CCN(c4cc(C(F)(F)F)cc(Cl)n4)CC3)ccc21
MIC (microbial growth, broth dilution; 25922; 22 h): 13 µg/mL

NC(=O)C1COC(=O)N1/N=C/c1ccc([N+](=O)[O-])o1 (stereo not drawn)
MIC (microbial growth, broth dilution; ATCC25922; 18 h): 25 µg/mL

CC(C)C(O)C(NC(=O)[C@H](Cc1ccc(O)cc1)NC(=O)C(Cc1ccc(O)cc1)[N+](C)(C)C)C(=O)N[C@@H](C)C(=O)O (stereo partly drawn)
MIC (ATCC 25922): > 100 µM

COC1COC(=O)N1/N=C/c1ccc([N+](=O)[O-])o1 (stereo not drawn)
MIC (microbial growth, broth dilution; ATCC25922; 18 h): > 50 µg/mL

COc1ccc2ccc3c(c2c1)C=[N+]1C2CCCCC2[N+]2=Cc4cccc(C)c4[O][Au-]21[O]3.F[P-](F)(F)(F)(F)F (stereo not drawn)
MIC (bacterial growth, broth microdilution; carbapenem-resistant; 24 h): 20 µM

CCCCCCN1C(=O)/C(=N\NC(=N)N)c2cc(C)ccc21
MIC (microbial growth, broth dilution; 18 h): 24 µg/mL

CC[C@@H](C)[C@@H](NC(=O)[C@@H](C)N)C(=O)N[C@H](CCCCN)C(=O)N[C@@H](C(=O)N[C@H](CCCNC(=N)N)C(=O)N[C@H](CCCCN)C(=O)N[C@H](CC(C)C)C(=O)N[C@H](Cc1ccccc1)C(=O)N[C@H](CCCCN)C(=O)N[C@H](CCCCN)C(=O)N[C@H](CC(C)C)C(=O)N[C@H](CC(C)C)C(=O)N[C@H](CCCNC(=N)N)C(N)=O)[C@H](C)CC
MIC (broth microdilution; ATCC 25922, LB medium; 16 to 20 h, 37 °C): 12.5 to 25 µg/mL

CC(=O)[O][Ag]=[c]1n(C)ccn1CC([O-])c1ccccc1.[Na+] (stereo not drawn)
MIC (broth dilution; ATCC 25922; 18 h, 37 °C): 5 µg/mL

NC[C@@H]1O[C@H](O[C@H]2[C@@H](O)[C@H](O[C@@H]3[C@@H](O)[C@H](N)C[C@H](N)[C@H]3O[C@H]3O[C@H](CO)[C@@H](OCCO)[C@H](O)[C@H]3N)O[C@@H]2CO)[C@H](N)[C@@H](O)[C@@H]1O
MIC (broth microdilution; clinical isolate AG 003): 32 µg/mL

CC(C)C[C@@H]1NC(=O)[C@@H](CC(C)C)NC(=O)[C@H](CCN)NC(=O)[C@@H](NC(=O)[C@H](CCN)NC(=O)[C@@H](N)[C@@H](C)O)CCNC(=O)[C@H]([C@@H](C)O)NC(=O)[C@H](CCN)NC(=O)[C@H](CCN)NC1=O
MIC (broth microdilution; ATCC 35218, CAMHB with polysorbate-80; 16 h): > 64 µg/mL

COc1ccc2ccc3c(c2c1)C=[N+]1C2CCCCC2[N+]2=Cc4cc(C(C)(C)C)ccc4[O][Au-]21[O]3.F[P-](F)(F)(F)(F)F (stereo not drawn)
MIC (bacterial growth, broth microdilution; carbapenem-resistant; 24 h): > 20 µM

C/C(=N\NC(N)=S)c1ccc2c(c1)sc1nc(=O)c(C#N)cn12
MIC (broth microdilution): < 44 µg/mL

NCC1OC(OC2C(N)CC(N)C(OC3OC(CO)C(O)C(N)C3O)C2OCCCCCCCCn2cc(CNc3nc(NCc4cn(CCCCCCCCOC5C(OC6OC(CN)C(O)CC6N)C(N)CC(N)C5OC5OC(CO)C(O)C(N)C5O)nn4)nc(NCc4cn(CCCCCCCCOC5C(OC6OC(CN)C(O)CC6N)C(N)CC(N)C5OC5OC(CO)C(O)C(N)C5O)nn4)n3)nn2)C(N)CC1O (stereo not drawn)
MIC (microbial growth, broth dilution; ATCC25922): 128 µg/mL

CN1/C(=C/C=C/c2cc(-c3ccccc3)cc(-c3ccccc3)[o+]2)C(C)(C)c2ccccc21
MIC (microbial growth, broth dilution; ATCC25922): 8 µg/mL

CC(C)=CCc1cc(-c2coc3cc(O)c(CC=C(C)C)c(O)c3c2=O)ccc1O
MIC (TISTR 780): 128 µg/mL

O=C1OCC(NCc2ccccc2)N1/N=C/c1ccc([N+](=O)[O-])o1 (stereo not drawn)
MIC (microbial growth, broth dilution; ATCC25922; 18 h): 3.12 µg/mL

COCO[C@H]1[C@H](O)[C@@H](N)[C@@H](O[C@H]2[C@H](O[C@@H]3O[C@H](CO)[C@@H](O[C@H]4O[C@@H](CN)[C@@H](O)[C@H](O)[C@H]4N)[C@H]3O)[C@@H](O)[C@H](N)C[C@@H]2N)O[C@@H]1CO
MIC (broth microdilution; clinical isolate AG 002): 32 to 64 µg/mL

O=C(NCCNCCO)c1cn(Cc2ccccc2)c2c(Cl)c(OCc3ccc(C(F)(F)F)cc3)c(Cl)cc2c1=O
MIC (ATCC 25922; ≥80% growth inhibition): > 32 µg/mL

CC(=O)c1ccc2c(c1)sc1nc(=O)c(C#N)cn12
MIC (microbial growth, broth dilution): < 49 µg/mL

COc1c(NC(=O)c2ccc(NC(=O)c3ccc(NC(=O)[C@H](CC#N)NC(=O)c4ccc(NC(=O)/C(C)=C/c5ccc(O)cc5)cc4)cc3)c(OC)c2O)ccc(C(=O)O)c1O
MIC (DSM 1116): 0.125 µg/mL

CC[C@H](C)[C@H](NC(=O)[C@H](CCCCN)NC(=O)[C@H](CCCCN)NC(=O)[C@H](Cc1c[nH]c2ccccc12)NC(=O)[C@H](CC(N)=O)NC(=O)[C@@H](NC(=O)COCCOCCOCCOCCOCCOCCOC(=O)NCCCCCCNC(=O)NCCCCCCNC(=O)Nc1nc(=O)cc(C)[nH]1)C(C)C)C(=O)N[C@@H](CC(C)C)C(=O)NCC(=O)N[C@@H](CCCCN)C(=O)N[C@H](C(=O)N[C@H](C(=O)N[C@@H](CCCCN)C(=O)N[C@H](C(=O)N[C@H](C(=O)N[C@@H](CCCCN)C(N)=O)C(C)C)C(C)C)[C@@H](C)CC)[C@@H](C)CC
MIC (ATCC 8937, RPMI medium; 24 h, 37 °C): 7.5 µM

CC(C)C1=CC2=CCC3C(C)(C(=O)OCCC[N+](C)(C)C)CCCC3(C)C2CC1 (stereo not drawn)
MIC (microbial growth, broth dilution; ATCC25922; 16 h): 15.6 µg/mL

CCCCCCCCCCN1C(=O)/C(=N\NC(=N)N)c2cc(C)ccc21
MIC (microbial growth, broth dilution; 18 h): 24 µg/mL

Cc1cc(/C=C2\Sc3ccccc3N2CCCN2CCCC2)c2ccccc2[n+]1C
MIC (microbial growth, broth dilution; ATCC25922): 4 µg/mL

COc1ccc2ccc3c(c2c1)C=[N+]1C2CCCCC2[N+]2=Cc4ccc(-c5ccccc5)cc4[O][Au-]21[O]3.F[P-](F)(F)(F)(F)F (stereo not drawn)
MIC (bacterial growth, broth microdilution; carbapenem-resistant; 24 h): > 20 µM

CCn1[c]([Au-]([Cl])([Cl])[Cl])[n+](CC)c2ccc(C(=O)OC)cc21
MIC (broth dilution; DSM 1116; 20 h, 37 °C): 34.9 ± 8.6 µM

CCCCc1ccc(N2C(=O)/C(=N\NC(=N)N)c3cc(C)ccc32)cc1
MIC (microbial growth, broth dilution; 18 h): 12 µg/mL

COc1ccc2ccc3c(c2c1)C=[N+]1C2CCCCC2[N+]2=Cc4ccc(C)cc4[O][Au-]21[O]3.F[P-](F)(F)(F)(F)F (stereo not drawn)
MIC (bacterial growth, broth microdilution; carbapenem-resistant; 24 h): > 20 µM

C/C(=N/NC(=N)N)c1nnn(-c2ccc(C#Cc3ccsc3)cc2)c1C
MIC (microbial growth, broth dilution; BW25113): > 64 µg/mL

COc1ccc2ccc3c(c2c1)C=[N+]1C2CCCCC2[N+]2=Cc4cccc(F)c4[O][Au-]21[O]3.F[P-](F)(F)(F)(F)F (stereo not drawn)
MIC (bacterial growth, broth microdilution; carbapenem-resistant clinical isolate; 24 h): 20 µM

CCN(CC)c1ccc(/C=N/NC(=O)c2cc(Cl)cc(Cl)c2)c(O)c1
MIC (broth dilution; brain heart infusion broth; 24 h, 37 °C): > 100 µM

O=C1c2ccccc2C(=O)c2c1ccc1c2C(C(=O)Nc2ccccc2)C(=O)C1c1ccccc1 (stereo not drawn)
MIC (microbial growth): > 100 µg/mL

CCn1cc(/C=C/c2sc3ccccc3[n+]2CC)c2ccccc21
MIC (780, Mueller-Hinton broth): 16 ± 0.001 µg/mL

CCCCO[C@H]1[C@H](O)[C@@H](N)[C@@H](O[C@H]2[C@H](O[C@@H]3O[C@H](CO)[C@@H](O[C@H]4O[C@@H](CN)[C@@H](O)[C@H](O)[C@H]4N)[C@H]3O)[C@@H](O)[C@H](N)C[C@@H]2N)O[C@@H]1CO
MIC (broth microdilution; clinical isolate AG 003): 64 µg/mL

CC1=C[C@@H](C)[C@H]2[C@@H]3C(=O)C(Cl)(Cl)C(=O)[C@H](C)C(=O)O[C@@H](C)/C=C/C=C\[C@@H](C)[C@@H]3C=C[C@@H]2C1
MIC (K12 ΔtolC; 24 h): > 3.2 µg/mL

C=CCO[C@H]1[C@H](O)[C@@H](N)[C@@H](O[C@H]2[C@H](O[C@@H]3O[C@H](CO)[C@@H](O[C@H]4O[C@@H](CN)[C@@H](O)[C@H](O)[C@H]4N)[C@H]3O)[C@@H](O)[C@H](N)C[C@@H]2N)O[C@@H]1CO
MIC (microbial growth, broth dilution; clinical isolate): 64 µg/mL

Cc1[nH]c(=O)c(CNC(=O)c2ccc(C(F)(F)F)nc2)c2c1CCCC2
MIC (microbial growth; ATCC25922): > 128 µg/mL

NC[C@@H]1O[C@H](O[C@H]2[C@@H](O)[C@H](O[C@@H]3[C@@H](O)[C@H](N)C[C@H](N)[C@H]3O[C@H]3O[C@H](CO)[C@@H](OCC(O)CO)[C@H](O)[C@H]3N)O[C@@H]2CO)[C@H](N)[C@@H](O)[C@@H]1O (stereo partly drawn)
MIC (broth microdilution; clinical isolate AG 002): 16 to 32 µg/mL

S=c1n(CN2CCN(c3ccccn3)CC2)nc(C23CC4CC(CC(C4)C2)C3)n1-c1ccccc1
MIC (microbial growth, broth dilution; IFO3301; 24 h): 16 µg/mL
